Published values of several laboratories.
Each numbered part is a random draw from the data of one study; scales do not carry over between parts.

Series 1
Target: Histone acetyltransferase KAT6A, both winged helices, GST fusion (KAT6A, Homo sapiens, UniProt Q92794, residues 1-181)
Method: protein binding microarray
Molecule type: double-stranded DNA, one strand shown
Medium: in vitro
Concentration: not given
Notes: 8-mer, flanks averaged, mean of 2 arrays, mostly near background
Reference: not given
Reading: higher = stronger binding
Residues (chain): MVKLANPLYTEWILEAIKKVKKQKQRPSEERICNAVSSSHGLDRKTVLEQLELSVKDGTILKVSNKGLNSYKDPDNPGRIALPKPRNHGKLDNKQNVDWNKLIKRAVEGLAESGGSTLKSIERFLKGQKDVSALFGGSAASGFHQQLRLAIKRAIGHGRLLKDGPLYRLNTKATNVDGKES
Oligonucleotide | E-score
CTAGCGCC | 0.24
AATGTCGC | 0.0788
CTTCCTTC | -0.0919
AAACCGCC | 0.203
AGTAAGAT | -0.145
CTGCGATC | 0.0201
GCCTAGGA | -0.191
AAGCCCAA | -0.124
CCCAGCCG | 0.101
CGCAGGAG | -0.0235
CAAGCGGG | 0.228
CACCAAGC | 0.00874
CCGCTCTA | 0.176
CGTAGCAC | 0.198
CTATCGCC | 0.0843
GGATGGAA | -0.0935
ACGTGACT | 0.0205
CCTACCCG | 0.132
TACACGTA | -0.0478
AGGTGTGG | -0.0902
CAAGAGGG | -0.129
AGATCTAT | 0.015
ACGAAAGG | -0.0665
CAGGAGGC | -0.0754
CTGGGTGA | -0.0962

Series 2
Target: RNA binding protein fox-1 homolog 2, RRM domain, GST-SBP tag (RBFOX2, Homo sapiens, UniProt O43251-10, residues 100-194)
Method: RNA Bind-n-Seq
Molecule type: RNA
Medium: in vitro
Concentration: 365 nM
Notes: natural RNA segment, single round, ends assumed
Reference: no-protein control
Reading: higher = stronger binding
All sequences stand within: GGGAGUUCUACAGUCCGACGAUC … UGGAAUUCUCGGGUGCCAA
Construct (chain): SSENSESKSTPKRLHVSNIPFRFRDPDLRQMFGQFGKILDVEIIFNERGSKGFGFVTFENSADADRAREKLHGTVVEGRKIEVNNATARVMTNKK
Oligonucleotide | RBNS enrichment (R)
CAUUCAUUCAGAGGUUUGUUUUCUCUCAGUCCUUUUGCUACAUUCACUUUCUUUUCAAAGAAAUGUUAAUUAUUACAAAAAUUGACAUAGAUAUCUUUCCCAAACUUGGG | 0.444
CUGGGAAAGCAGGUACCCCAGUGAAACUGGUCUGUGCUUGGUUUAACAGCUCCAACAAUUUCAGAUCCAUGGGGCUGCUUGACCAUAGACCCUGUUUACUCCAUGCCUGU | 0.384
UAAGGCCUAAGAUGCUCACAGAGGUCCCUCAUGACCUCCCUUCCCCAACUCCCGAAUCCUCUCUUGAGUGUGGACCUCAACACCUUGAGCCCUAGUAAAGGAACUAUGCA | 5.91
CGCUUGAGGCCAGGAGUUUGAGACCACCUUGGGCAACAUAACGAGACCCCGUCUCUACAAAAAAAAUUUAAAAAUUAGCUGAGCAUGGUGGCAUGUGCCAGUAGUCCCAG | 1.64
UAUGGGCUGCCAUCUCAGGCUGUCUUGAGGACCUGGGCUCCCUCUGCUACUCCCAGGAAAUGGGCUCCUGACACAGCAGUCUGCCACCACAGCCCCAGGAGGGUGUCAAC | 0.546
AGUUUUGUAGUUCCUCAGGCCUCUAAUUUAUUUUUUGCUUUCUGCUUUAUUGAUCUUUUGCAUGUCCCCCAAAGCCAGAAUCUGCUCAUGGAGGAAGGAAGGCUAAGAAC | 9.96
AUCAGAUGGAUGGAUUUGUGUUUGUCUCAGAGCAGCAUAUACAUGCAGUCAGUAAGCAUGUUUGAAAGGACCAUAAAAACCAGAGAAAUGCUGAUGGGAACUUGGAAGUU | 0.791
GAUUCCAGGGGUGUGAUUGAAUAUUUAUCUCUUGCUCUUGUAUGUUUGUUGGGGAGAAGAAGCACUUUUAAGGAAAAUGCUUCUUAUUUUUCCAAGGCAUUCAGAAGCAG | 0.506
CCUGGAACAGAAAUUGUUUAUAGAGACUACACUAAUUAUUUUAACUGUAUACAUCUGUUUAAUUUGAACACACUACAUCGUAGGGUGACUGAUUUUUGAAGUAUACCACA | 0.363
GCCUCCGACAGUGUCCUCGCUCUACCUCUGACCUCUCCGGAGGUUCCGCUGCCUCCAAGCCGGACUUAGGGCUUCAAGAGGCGGGCGUGCCCUCUGGAGUCCCCUACCAU | 0.279
AUUUUGUAGGACUUUUAAUUGUAAUGAUAGAGAAAAAAACAAGGAAAACUAUUUAAUGAAAGCACGAUAUUUAUCUUUGGUAAAUGACUUUAGAGCAGUUAAAGACAUUG | 7.4
UUGAUAAUUCUUACUAACACAGAUUAGGGUAUAGGCAUCUAGAGAUGCACUGUCCACUGUAAAUACUAUAAUGAGAGCCACAUCUGUAAUUUAAAUGUUUCUAGUAACCA | 0.412

Series 3
Target: RING finger protein unkempt homolog, zinc fingers 1-6, GST-SBP tag (UNK, Homo sapiens, UniProt Q9C0B0, residues 30-357)
Method: RNA Bind-n-Seq
Molecule type: RNA
Medium: in vitro
Concentration: not given
Notes: RNA with constant flanks, ends assumed
Reference: input RNA pool
Reading: higher = stronger binding
All sequences stand within: GGGAGUUCUACAGUCCGACGAUC … CAACAGAGGAUUGAGCAUCA
Construct (chain): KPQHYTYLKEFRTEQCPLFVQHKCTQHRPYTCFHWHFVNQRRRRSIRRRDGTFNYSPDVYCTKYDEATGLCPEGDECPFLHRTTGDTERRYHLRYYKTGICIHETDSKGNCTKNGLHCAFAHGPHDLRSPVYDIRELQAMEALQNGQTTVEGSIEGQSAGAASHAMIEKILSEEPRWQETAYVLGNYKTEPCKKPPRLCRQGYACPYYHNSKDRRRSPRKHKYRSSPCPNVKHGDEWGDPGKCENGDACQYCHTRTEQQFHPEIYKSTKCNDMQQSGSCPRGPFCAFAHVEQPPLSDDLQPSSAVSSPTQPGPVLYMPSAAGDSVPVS
Oligonucleotide | bound/input enrichment [ratio]
UACUACUUAUCUGUGUUUCUGGAGCUCUCAGCUGGCUUGCCUGAAACUUCUAAAUAUGAAUAUCGUGCCGAGAUGGUUCACCAGUCCUGUAAUGAUCCUACAAAAAAUAUCAUUCGAGAA | 0.273
GCACUUGGCAAUGUAAUAAGUGCCUUGGGAGACAAGAGCAAGAGGGCCACACAUGUCCCCUACCGAGAUUCCAAGCUAACAAGACUACUACAGGAUUCCCUCGGGGGUAAUAGCCAAACA | 0.174
UCUUUGUUUGUAACUUAUCUGUAAAAGGUUUCUCCCUACUGUCAAAAAAAUAUGCAUGUACCGUAAUCCGGACUUCAUUCCUCCAUGUUUUCUUCCCUUAUCUUACUGUCAUUGUCCUAA | 0.419
GAUGAAAAGAUGAGCCCAACAAUUGGAAAACAAUUACUUAAGGGCUCCGCUGAUCCUCUAAACCGUGCUUUCCAUUUGACCUACAACAUGGUUUUGAACUUACUACGUGUAGAAGAAAUU | 0.153
CCUGAAGAAAACCCUGGGUCACCUUCUAGAGAAUCACCUCUUUCAGCACCUUCAGAUCAUUCUCCGGUCUAAGGUGUAACACCUUUGCAGUACGUCAUGGGUGAUCUAAUACUUCCCCUU | 0.173
UCUUAAUCAUAGUCUACCAUCAAAUACUUUAGGAGUAUCCUUAAUGUUUAGAUAGAAUAUCCGCAGCAUGCAAUAAUUACAUCCUAAGUUCUCAAGCAGAGGCAGUCUAUUGCAAGGACC | 2.9
AGAGGAGUUUGGGGGCUUGGCACCUGAAAAUUUAGACCGCAUUCUUAUUAAGUAAAGGAAGAGGCCGGGAGGCCGAGGCGGGCGGAUCAUGAAAUCAGGAGAUCCAGACCGUCCUGGCUA | 0.834
GAUUCCAAGCUAACAAGACUACUACAGGAUUCCCUCGGGGGUAAUAGCCAAACAAUCAUGACCGCAUGUGUCAGCCCUUCAGACAGAGACUUUAUGGAAACGUUAAACACCCUGAAAUAC | 0.331
ACUUUAAACCAUUUGACUUUCGCUCCAAAGUUAUGUUGGUAGUAUAGCAAAUUAUGAUGAACCGCUUUAAUUGUAUGUUUAAAAGUCUCAUAUGUUCACAUGCUUAAAUCUGGGUAUCAG | 1.51
CGAGAUGCCCGUUCUUACAACCGGUUUCAAAUCGCCACUGUCACCGAAAAAGGUGUUGAAACCGAGGGACCAUUGUCUACAGAGACCAACUGGGAUAUUGCCCACAUGAUCAGUGGCUUU | 0.0879
ACUCCUGUUACCUUGAAAAAUAAAAAUGUUAACAGGAAUGCAGUGUGCUCAUUAUCCCUAACCCGCAAAUCCUACUUUAUGCAAAGCUGUUCUCUUGUUCUGCUGUUUUAAAUGUCCAUG | 0.203

Series 4
Target: Prothrombin, mature alpha-thrombin (F2, Homo sapiens, UniProt P00734)
Method: aptamer microarray, sandwich
Molecule type: DNA with 2'F-ANA
Medium: in vitro
Concentration: 200 nM
Notes: whole 15-mer aptamer, many near background
Added: Cy3 exosite-II aptamer, 400 nM
Reading: higher = stronger binding
Oligonucleotide: GGTTGGTGTGGTTGG
Modification | mean fluorescence intensity
2'F-ANA at 1 2 4 6 8 10 | 52.8 a.u.
2'F-ANA at 1 2 7 11 13 | 124 a.u.
2'F-ANA at 1 2 3 5 6 7 8 10 11 12 | 70 a.u.
2'F-ANA at 1 2 5 6 8 12 13 | 82.7 a.u.
2'F-ANA at 2 3 5 6 9 10 11 12 14 | 48.5 a.u.
2'F-ANA at 1 2 3 4 6 8 10 12 14 15 | 50.2 a.u.
2'F-ANA at 2 4 5 15 | 65.2 a.u.
2'F-ANA at 2 3 6 7 8 9 10 11 13 14 15 | 224 a.u.
2'F-ANA at 2 3 5 6 8 9 10 12 | 78.1 a.u.
2'F-ANA at 2 4 5 8 9 14 15 | 46.5 a.u.
2'F-ANA at 1 3 6 7 12 | 505 a.u.
2'F-ANA at 3 5 7 8 10 11 12 13 15 | 66.3 a.u.
2'F-ANA at 3 4 9 10 11 12 | 332 a.u.
2'F-ANA at 1 2 3 4 7 12 13 14 15 | 77.7 a.u.
2'F-ANA at 1 2 7 8 11 15 | 181 a.u.
2'F-ANA at 1 2 4 8 9 14 | 87.6 a.u.
2'F-ANA at 2 5 7 13 15 | 88.3 a.u.
2'F-ANA at 2 3 6 7 8 10 11 14 | 299 a.u.
2'F-ANA at 2 3 9 10 11 13 14 | 269 a.u.
2'F-ANA at 1 3 4 10 11 13 | 64.4 a.u.
2'F-ANA at 1 5 6 7 8 10 12 15 | 64.6 a.u.
2'F-ANA at 1 4 7 8 10 12 13 14 15 | 47 a.u.
2'F-ANA at 1 2 4 6 7 9 11 13 14 15 | 50.1 a.u.
2'F-ANA at 2 5 7 11 13 15 | 50.5 a.u.
2'F-ANA at 6 7 9 10 14 15 | 116 a.u.

Excerpt of the above (series 1):
Oligonucleotide | E-score
CGCAGGAG | -0.0235
CTATCGCC | 0.0843
AAACCGCC | 0.203
CACCAAGC | 0.00874
CTTCCTTC | -0.0919
AGTAAGAT | -0.145
CCGCTCTA | 0.176
GGATGGAA | -0.0935
ACGAAAGG | -0.0665
GCCTAGGA | -0.191
CAAGCGGG | 0.228
